Experimental data pooled from the literature.
Lines come from different studies, so protocols differ. ± marks the error that the study gave.

COc1cnc2cccc(N3CCc4c(cc(Cn5ccnc5)cc4-c4cn(C)nc4C(F)(F)F)C3=O)c2c1 — AUC ratio (CD-1 male mice, plasma; 50 mg/kg; relative to: intraperitoneal over oral): 1.5 fold
COCC1CN(C2CCN(c3cc(OC)c(Nc4ncc(Br)c(Nc5ccc6c(c5P(C)(C)=O)OCCO6)n4)cc3C)CC2)C1 — patients with increased AST (human; oral, dose not given, sample A patients, any grade): 33.3%
CC(C)[C@H](NC(=O)CNC(=O)[C@H](CCC(N)=O)NC(=O)[C@H](C)N)C(=O)O — clearance (LC-MS/MS; human, male, plasma; intravenous, 20 mg/kg three times daily, day 2, first dose, 10 min infusion, geometric mean): 850 mL/min/kg
CNC(=O)N[C@]1(C)CCC[C@@]2(C)C3CC[C@@]4(C)C[C@]3(CCC21)CC4=O (single isomer, unassigned) — relative error (rat plasma; 1.5 ng/mL, 8 h, room temperature, short-term stability; relative to: nominal concentration): -8%
CC12CC(c3ccc(C(O)CO)cc3)C3=C4CCC(=O)C=C4CCC3C1CCC2(O)C(F)(F)C(F)(F)F (stereo not shown) — maximal oral bioavailability (human liver microsomes; 100 % absorption assumed): 68%
CC(C)[C@H](NC(=O)CNC(=O)[C@H](CCC(N)=O)NC(=O)[C@H](C)N)C(=O)O — volume of distribution (healthy volunteers, LPS endotoxaemia, plasma; intravenous, 45 mg/kg/h, 2 h infusion, geometric mean, added: LPS 2 ng/kg): 2.3 L/kg
COC(=O)c1ccc(-c2cn(Cc3cc(Cl)ccc3O[11CH3])nn2)cc1 — radioactivity (C57BL/6 mouse, brain; dose not given, 60 min): 0.69 %ID/cc
CCCC[C@H](NC(=O)CNC(=O)CNC(=O)CN1CCN(CC(=O)O)CCN(CC(=O)O)CC1)C(=O)N[C@H]1CC(=O)NCCCC[C@@H](C(N)=O)NC(=O)[C@H](Cc2c[nH]c3ccccc23)NC(=O)[C@H](CCCNC(=N)N)NC(=O)[C@@H](Cc2ccccc2)NC(=O)[C@H](Cc2c[nH]cn2)NC1=O [copper-64 labelled] — urinary excretion (C57 mouse female B16/F1 melanoma, urine; intravenous, 0.037 MBq, 2 h): 91.7 ± 1.57%
CCCCC/C=C/C=C/C(=O)NCC(C)C — relative error (rat plasma; 250 ng/mL, three freeze-thaw cycles medium QC; relative to: nominal concentration): 0.27%
CC(C)C[C@H](NC(=O)C[C@H](O)[C@H](CC(C)C)NC(=O)[C@H](Cc1c[nH]cn1)NC(=O)CNC(=O)[C@@H](NC(=O)[C@H](C)NC(=O)[C@H](Cc1c[nH]c2ccccc12)NC(=O)[C@H](CCC(N)=O)NC(=O)[C@@H](Cc1ccccc1)NC(=O)CCNC(=O)CCNC(=O)CN1CCN(CC(=O)O)CCN(CC(=O)O)CCN(CC(=O)O)CC1)C(C)C)C(N)=O [lutetium-177 labelled] — tumour clearance half-life (mouse, PC-3 xenograft; intraperitoneal): 24.4 ± 8.3 h
Cc1ccccc1/N=N/c1ccc(/N=N/c2c(O)ccc3ccccc23)c(C)c1 — measured concentration (rat whole blood; 5.0 µg/L, 30 days, -20 °C, long-term storage): 5.19 µg/L
CC(C)(O)c1ncc([S@](N)(=O)=NC(=O)Nc2c3c(cc4c2CCC4)CCC3)s1 — Tmax (healthy humans; oral, up to 10 mg, suspension, median range): 0.76 to 1 h
CC(C)[C@H](NC(=O)[C@@H]1CCCN1C(=O)[C@H](CCCNC(=N)N)NC(=O)[C@H](CS)NC(=O)[C@H](Cc1c[nH]c2ccccc12)NC(=O)[C@H](CCCNC(=N)N)NC(=O)[C@@H](Cc1ccccc1)NC(=O)[C@H](Cc1c[nH]cn1)NC(=O)[C@H](CCC(=O)O)NC(=O)[C@H](CS)NC(=O)[C@H](CS)NC(=O)CNC(=O)[C@@H]1CC(=O)N[C@@H](CCCNC(=N)N)C(=O)NCC(=O)N[C@@H](CC(=O)O)C(=O)N[C@H](Cc2ccc(O)cc2)C(=O)N1)C(N)=O [technetium-99m labelled] — excretion (C57 mice B16/F1 melanoma female, urine; iv, 0.037 MBq, 0.5 h): 38.3 ± 8.9%
CN1CC[C@H](c2c(O)cc(O)c3c(=O)cc(/C=C/c4c(Cl)cccc4Cl)oc23)[C@H](O)C1 — dissolved fraction (dissolution, USP paddle apparatus; water, 0.25% SLS; 120 min, 37 °C, sink conditions): 78%
COc1ccc(CNC[C@@](O)(COCc2ccc(OC)cc2)[C@@H]2CC[C@@H](C)C[C@H]2OCc2ccc(OC)cc2)cc1 — permeability (PAMPA-GI; phosphatidylcholine-cholesterol membrane; 500 µM, 4 h, pH 6.5, 37 °C, 5% DMSO): 37.4 ± 3.5 ×10⁻⁶ cm/s
Nc1ncnc2c1nc(-n1nnc3c1CCC1C(CO)C1CC3)n2C1CC(O)C(CO)O1 (mixture of isomers) — average fluorescence lifetime (frequency-domain fluorometry; methanol): 1.6 ns
CC[C@H](C)[C@H](NC(=O)[C@H](C)NC(=O)CNC(=O)[C@H](Cc1ccccc1)NC(=O)[C@H](CC(N)=O)NC(=O)[C@H](CC(N)=O)NC(=O)[C@H](CO)NC(=O)[C@H](CO)NC(=O)[C@H](Cc1c[nH]cn1)NC(=O)[C@@H](NC(=O)[C@H](CC(C)C)NC(=O)[C@H](Cc1ccccc1)NC(=O)[C@H](CC(N)=O)NC(=O)[C@H](C)NC(=O)[C@H](CC(C)C)NC(=O)[C@H](CCCNC(=N)N)NC(=O)[C@H](CCC(N)=O)NC(=O)[C@@H](NC(=O)[C@H](C)NC(=O)[C@@H]1CSSC[C@H](NC(=O)[C@@H](N)CCCCN)C(=O)N[C@@H](CC(N)=O)C(=O)N[C@@H]([C@@H](C)O)C(=O)N[C@@H](C)C(=O)N[C@@H]([C@@H](C)O)C(=O)N1)[C@@H](C)O)C(C)C)C(=O)N[C@@H](CC(C)C)C(=O)N1CCC[C@H]1C(=O)N1CCC[C@H]1C(=O)N[C@H](C(=O)N[C@@H](CC(N)=O)C(=O)N[C@H](C(=O)NCC(=O)N[C@@H](CO)C(=O)N[C@@H](CC(N)=O)C(=O)N[C@H](C(=O)N[C@@H](Cc1ccc(O)cc1)C(N)=O)[C@@H](C)O)C(C)C)[C@@H](C)O — collision cross section (ion mobility mass spectrometry; nitrogen drift gas; monomer ion charge +3): 552 ± 8.4 Å²
CC[C@H](C)[C@H](NC(=O)[C@H](CC(C)C)NC(=O)[C@H](Cc1c[nH]c2ccccc12)NC(=O)[C@H](C)NC(=O)[C@@H](NC(=O)[C@H](Cc1ccccc1)NC(=O)[C@H](CC(=O)O)NC(=O)[C@H](CCCNC(=N)N)NC(=O)[C@H](C)NC(=O)[C@H](C)NC(=O)[C@H](CC(C)C)NC(=O)[C@H](C)NC(=O)[C@H](CC(=O)O)NC(=O)[C@H](CC(C)C)NC(=O)[C@@H](NC(=O)[C@@H](NC(=O)[C@H](C)NC(=O)[C@H](CC(C)C)NC(=O)[C@H](CCC(=O)O)NC(=O)[C@H](CO)NC(=O)[C@H](CO)NC(=O)[C@H](Cc1ccccc1)NC(=O)[C@@H](NC(=O)CNC(=O)[C@H](CCC(=O)O)NC(=O)CNC(=O)[C@@H](N)Cc1c[nH]cn1)[C@@H](C)O)[C@@H](C)O)[C@@H](C)CC)[C@@H](C)CC)C(=O)N[C@@H](C)C(=O)N[C@H](C(=O)N[C@@H](CCCCN)C(=O)N[C@H](C(=O)N[C@H](C(=O)N[C@@H](CC(=O)O)C(=O)N[C@@H](CCCCN)C(=O)O)[C@@H](C)O)[C@@H](C)CC)[C@@H](C)O — AUCtau (immunoaffinity LC-MS/MS; healthy human subjects, plasma; subcutaneous, 5 mg once weekly, day 36 after 6 doses, steady state, geometric mean): 0.0966 µM·h
Cn1c(=O)oc2ccc(-c3ccc(CC(C#N)NC(=O)C4CNCCCO4)c(F)c3)cc21 (stereo not shown) — subjects with TRAE (item: macule; human; 80 mg single dose, fasted): 16.7%
O=C(O)C1CN(Cc2ccc(-c3noc(-c4ccc(OCC[18F])c(C(F)(F)F)c4)n3)cc2)C1 — tracer uptake (rat, blood; intravenous, 30 min): 0.24 %ID/g
CCOc1c(C(C)(C)O)sc2cnc(Nc3ccc(N4CCC(N5CC6(COC6)C5)CC4)cc3OC)nc12 — action potential amplitude change (New Zealand rabbit, male, isolated Purkinje fibres; 30 µM, 45 min, pacing 3 Hz): -5 ± 1%
CCC1CC2C(C)=CC3C(=O)CCCC3C=CC(C)=CC2C(=O)O1 (stereo not shown) — concentration (male ICR mice, brain; oral, 30 mg/kg, 30 min): 3 ± 3.2 ng/g

Repeated from above:
CC[C@H](C)[C@H](NC(=O)[C@H](CC(C)C)NC(=O)[C@H](Cc1c[nH]c2ccccc12)NC(=O)[C@H](C)NC(=O)[C@@H](NC(=O)[C@H](Cc1ccccc1)NC(=O)[C@H](CC(=O)O)NC(=O)[C@H](CCCNC(=N)N)NC(=O)[C@H](C)NC(=O)[C@H](C)NC(=O)[C@H](CC(C)C)NC(=O)[C@H](C)NC(=O)[C@H](CC(=O)O)NC(=O)[C@H](CC(C)C)NC(=O)[C@@H](NC(=O)[C@@H](NC(=O)[C@H](C)NC(=O)[C@H](CC(C)C)NC(=O)[C@H](CCC(=O)O)NC(=O)[C@H](CO)NC(=O)[C@H](CO)NC(=O)[C@H](Cc1ccccc1)NC(=O)[C@@H](NC(=O)CNC(=O)[C@H](CCC(=O)O)NC(=O)CNC(=O)[C@@H](N)Cc1c[nH]cn1)[C@@H](C)O)[C@@H](C)O)[C@@H](C)CC)[C@@H](C)CC)C(=O)N[C@@H](C)C(=O)N[C@H](C(=O)N[C@@H](CCCCN)C(=O)N[C@H](C(=O)N[C@H](C(=O)N[C@@H](CC(=O)O)C(=O)N[C@@H](CCCCN)C(=O)O)[C@@H](C)O)[C@@H](C)CC)[C@@H](C)O — AUCtau (immunoaffinity LC-MS/MS; healthy human subjects, plasma; subcutaneous, 5 mg once weekly, day 36 after 6 doses, steady state, geometric mean): 0.0966 µM·h
Cn1c(=O)oc2ccc(-c3ccc(CC(C#N)NC(=O)C4CNCCCO4)c(F)c3)cc21 (stereo not shown) — subjects with TRAE (item: macule; human; 80 mg single dose, fasted): 16.7%
O=C(O)C1CN(Cc2ccc(-c3noc(-c4ccc(OCC[18F])c(C(F)(F)F)c4)n3)cc2)C1 — tracer uptake (rat, blood; intravenous, 30 min): 0.24 %ID/g
